Assay results collected from several papers.
Every numbered part comes from another study and shows a few of its results, in no order.
Sequence of UniProt Q13470 (whole entry, looked up): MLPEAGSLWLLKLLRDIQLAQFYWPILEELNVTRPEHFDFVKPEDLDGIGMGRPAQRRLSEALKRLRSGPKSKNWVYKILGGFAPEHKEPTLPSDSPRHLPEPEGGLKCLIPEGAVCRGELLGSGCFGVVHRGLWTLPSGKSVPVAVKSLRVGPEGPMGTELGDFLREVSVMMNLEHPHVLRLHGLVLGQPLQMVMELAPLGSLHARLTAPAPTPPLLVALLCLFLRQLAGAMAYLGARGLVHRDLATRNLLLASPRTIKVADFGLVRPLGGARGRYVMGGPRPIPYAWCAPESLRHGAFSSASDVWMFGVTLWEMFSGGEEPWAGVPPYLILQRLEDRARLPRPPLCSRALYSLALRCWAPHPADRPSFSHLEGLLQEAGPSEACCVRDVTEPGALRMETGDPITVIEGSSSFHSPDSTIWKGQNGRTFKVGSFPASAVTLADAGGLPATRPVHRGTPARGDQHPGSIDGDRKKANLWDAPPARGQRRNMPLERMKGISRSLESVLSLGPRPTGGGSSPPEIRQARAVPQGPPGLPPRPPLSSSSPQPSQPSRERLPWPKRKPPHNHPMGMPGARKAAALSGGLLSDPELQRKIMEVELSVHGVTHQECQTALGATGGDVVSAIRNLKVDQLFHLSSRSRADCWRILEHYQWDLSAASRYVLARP
Sequence of UniProt O76039 (whole entry, looked up): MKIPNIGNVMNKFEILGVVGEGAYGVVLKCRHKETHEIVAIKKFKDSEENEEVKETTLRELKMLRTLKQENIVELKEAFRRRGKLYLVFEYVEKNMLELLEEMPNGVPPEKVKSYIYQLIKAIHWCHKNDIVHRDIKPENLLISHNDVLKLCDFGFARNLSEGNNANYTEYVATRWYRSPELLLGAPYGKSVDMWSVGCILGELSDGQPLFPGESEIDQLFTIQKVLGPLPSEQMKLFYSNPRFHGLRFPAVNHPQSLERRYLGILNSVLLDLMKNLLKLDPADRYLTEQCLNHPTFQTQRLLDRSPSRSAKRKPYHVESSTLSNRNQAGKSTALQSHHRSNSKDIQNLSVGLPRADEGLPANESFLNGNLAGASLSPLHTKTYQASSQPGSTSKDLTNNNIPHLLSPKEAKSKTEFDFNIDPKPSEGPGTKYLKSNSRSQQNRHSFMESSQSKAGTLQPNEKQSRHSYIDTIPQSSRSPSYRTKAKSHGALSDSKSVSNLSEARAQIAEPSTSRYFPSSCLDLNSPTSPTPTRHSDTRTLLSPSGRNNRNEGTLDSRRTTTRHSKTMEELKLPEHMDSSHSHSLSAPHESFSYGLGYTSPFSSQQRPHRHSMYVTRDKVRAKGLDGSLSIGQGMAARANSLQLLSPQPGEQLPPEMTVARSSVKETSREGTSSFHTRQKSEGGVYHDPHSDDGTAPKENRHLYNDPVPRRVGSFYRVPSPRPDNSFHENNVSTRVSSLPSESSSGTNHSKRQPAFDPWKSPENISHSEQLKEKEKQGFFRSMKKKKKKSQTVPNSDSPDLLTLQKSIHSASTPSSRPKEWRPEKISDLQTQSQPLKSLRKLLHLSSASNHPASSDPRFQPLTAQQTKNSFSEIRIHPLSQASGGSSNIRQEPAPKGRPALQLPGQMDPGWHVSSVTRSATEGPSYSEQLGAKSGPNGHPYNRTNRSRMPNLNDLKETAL
Sequence of UniProt P23458 (whole entry, looked up): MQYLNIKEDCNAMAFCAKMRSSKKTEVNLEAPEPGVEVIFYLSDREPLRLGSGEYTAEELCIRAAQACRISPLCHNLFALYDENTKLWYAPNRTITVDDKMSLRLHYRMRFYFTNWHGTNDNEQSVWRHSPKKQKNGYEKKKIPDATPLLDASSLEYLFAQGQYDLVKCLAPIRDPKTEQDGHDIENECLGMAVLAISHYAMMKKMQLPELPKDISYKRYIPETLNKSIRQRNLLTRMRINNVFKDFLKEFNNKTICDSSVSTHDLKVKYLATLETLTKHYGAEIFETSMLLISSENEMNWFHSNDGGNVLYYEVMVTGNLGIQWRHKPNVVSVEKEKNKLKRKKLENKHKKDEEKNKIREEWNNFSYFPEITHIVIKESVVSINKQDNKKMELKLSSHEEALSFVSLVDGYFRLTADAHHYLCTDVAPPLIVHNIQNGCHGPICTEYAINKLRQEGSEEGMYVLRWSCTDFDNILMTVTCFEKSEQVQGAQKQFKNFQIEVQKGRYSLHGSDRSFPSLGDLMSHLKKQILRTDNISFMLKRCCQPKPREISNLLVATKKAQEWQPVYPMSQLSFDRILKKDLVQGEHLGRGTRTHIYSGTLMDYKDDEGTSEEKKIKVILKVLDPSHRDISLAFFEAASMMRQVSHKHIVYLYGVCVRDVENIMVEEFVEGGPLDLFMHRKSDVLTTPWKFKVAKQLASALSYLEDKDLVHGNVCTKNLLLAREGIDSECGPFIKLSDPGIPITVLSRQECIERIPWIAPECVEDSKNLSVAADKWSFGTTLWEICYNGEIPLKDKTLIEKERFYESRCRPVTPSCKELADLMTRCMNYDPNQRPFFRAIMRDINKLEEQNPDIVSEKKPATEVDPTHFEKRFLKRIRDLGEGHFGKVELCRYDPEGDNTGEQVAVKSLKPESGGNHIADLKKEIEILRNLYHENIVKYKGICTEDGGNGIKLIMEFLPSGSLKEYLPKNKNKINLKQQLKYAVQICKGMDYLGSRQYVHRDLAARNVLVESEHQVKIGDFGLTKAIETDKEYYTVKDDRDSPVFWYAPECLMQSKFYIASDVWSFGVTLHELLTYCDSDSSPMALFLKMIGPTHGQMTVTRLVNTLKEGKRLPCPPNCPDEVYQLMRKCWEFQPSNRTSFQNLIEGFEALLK
Sequence of UniProt P11802 (whole entry, looked up): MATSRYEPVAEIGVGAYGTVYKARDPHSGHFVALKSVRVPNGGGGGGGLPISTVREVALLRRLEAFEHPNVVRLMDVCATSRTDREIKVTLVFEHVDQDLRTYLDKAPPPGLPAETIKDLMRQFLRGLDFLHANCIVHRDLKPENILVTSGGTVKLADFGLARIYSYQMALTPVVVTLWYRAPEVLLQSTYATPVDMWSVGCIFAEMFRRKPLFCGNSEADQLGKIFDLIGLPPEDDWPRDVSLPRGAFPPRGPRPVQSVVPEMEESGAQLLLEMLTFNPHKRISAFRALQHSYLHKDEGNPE
Sequence of UniProt Q8NEB9 (whole entry, looked up): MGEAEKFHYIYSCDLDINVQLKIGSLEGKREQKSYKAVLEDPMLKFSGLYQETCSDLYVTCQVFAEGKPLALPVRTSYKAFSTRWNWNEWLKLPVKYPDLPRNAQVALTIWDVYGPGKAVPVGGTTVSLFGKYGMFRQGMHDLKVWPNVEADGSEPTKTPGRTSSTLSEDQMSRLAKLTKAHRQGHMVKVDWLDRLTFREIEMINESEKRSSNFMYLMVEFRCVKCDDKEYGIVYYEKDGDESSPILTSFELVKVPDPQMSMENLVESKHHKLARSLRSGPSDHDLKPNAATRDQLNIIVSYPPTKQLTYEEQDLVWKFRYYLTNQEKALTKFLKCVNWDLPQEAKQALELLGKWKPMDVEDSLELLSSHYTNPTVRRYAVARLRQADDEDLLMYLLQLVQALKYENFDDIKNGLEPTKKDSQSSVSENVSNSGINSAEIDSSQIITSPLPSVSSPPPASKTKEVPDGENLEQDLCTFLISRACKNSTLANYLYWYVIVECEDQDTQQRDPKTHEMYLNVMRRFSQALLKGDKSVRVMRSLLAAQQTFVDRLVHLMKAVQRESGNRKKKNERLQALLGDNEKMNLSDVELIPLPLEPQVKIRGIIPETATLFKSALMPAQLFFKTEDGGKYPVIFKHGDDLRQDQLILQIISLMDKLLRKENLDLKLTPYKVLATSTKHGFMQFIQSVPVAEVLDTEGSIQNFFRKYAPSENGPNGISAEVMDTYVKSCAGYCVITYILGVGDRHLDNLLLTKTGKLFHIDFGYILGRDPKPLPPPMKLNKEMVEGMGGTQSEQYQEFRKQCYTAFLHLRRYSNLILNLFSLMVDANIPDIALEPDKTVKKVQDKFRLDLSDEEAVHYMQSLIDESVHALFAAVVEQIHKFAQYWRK

Set 1
SMILES: C=CC(=O)N1CCC[C@@H](n2nc(-c3ccc(Oc4ccccc4)cc3)c3c(N)ncnc32)C1
Mode: inhibitor
Tested at: 1 µM
| target | observed | inhibition |
| --- | --- | --- |
| Phosphatidylinositol 3-kinase catalytic subunit type 3 (PIK3C3, Homo sapiens, UniProt Q8NEB9) | enzyme activity | 5% |
| Cyclin-dependent kinase-like 5 (CDKL5, Homo sapiens, UniProt O76039) | enzyme activity | 9% |
| Cyclin-dependent kinase 4, with cyclin D3 (CDK4, Homo sapiens, UniProt P11802) |  | 14% |
| Tyrosine-protein kinase JAK1, JH2 pseudokinase domain (JAK1, Homo sapiens, UniProt P23458) |  | 2% |
| Serine/threonine-protein kinase Nek10 (NEK10, Homo sapiens, UniProt Q6ZWH5) | enzyme activity | 33% |
| Non-receptor tyrosine-protein kinase TNK1 (TNK1, Homo sapiens, UniProt Q13470) | enzyme activity | 14% |

Set 2
Target: Sigma intracellular receptor 2 (TMEM97, Homo sapiens, UniProt Q5BJF2)
Sequence of UniProt Q5BJF2 (whole entry, looked up): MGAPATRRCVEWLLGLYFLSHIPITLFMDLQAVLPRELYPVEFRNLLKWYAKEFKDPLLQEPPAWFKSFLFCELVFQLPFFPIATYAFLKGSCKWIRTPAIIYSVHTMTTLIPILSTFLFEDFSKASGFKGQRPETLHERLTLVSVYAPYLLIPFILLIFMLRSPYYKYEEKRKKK
Observed: binding
Method: radioligand binding
Tested at: 10 µM
| SMILES | inhibition |
| --- | --- |
| CN(C)CC#Cc1ccc(OCCCc2sc(N3CCc4cccc(C(=O)Nc5nc6ccccc6s5)c4C3)nc2C(=O)O)c(F)c1 | 83% |
| O=C(O)c1cc(-c2ccc(C3CCNCC3)cc2)c2ccc(-c3ccc(C(F)(F)F)cc3)cc2c1 | 95.6% |
| O=C([C@H]1C[C@H](O)CN1c1ccc(Cl)cc1)N1CC2COCC(C1)N2Cc1ccc(Cl)cc1 | 76.5% |
| C[C@@]1(Cc2ccc(C#N)cc2)C(=O)N(c2cc(Cl)cc(Cl)c2)c2ncc(C(=O)NC3(c4nc(C5CCC5)no4)CC3)n21 | 58% |
| COc1nc2ccc([C@@](O)(c3ccccc3)C3CCN(C(C)=O)CC3)cc2c(Cl)c1Cc1ccc(-n2cccn2)cc1 | 65.8% |

Set 3
Target: Serine/threonine-protein kinase BRSK1 (BRSK1, Homo sapiens, UniProt Q8TDC3)
Observed: enzyme activity
Mode: inhibitor
Tested at: 0.5 µM
Reference: control
Residues (Q8TDC3 1-778): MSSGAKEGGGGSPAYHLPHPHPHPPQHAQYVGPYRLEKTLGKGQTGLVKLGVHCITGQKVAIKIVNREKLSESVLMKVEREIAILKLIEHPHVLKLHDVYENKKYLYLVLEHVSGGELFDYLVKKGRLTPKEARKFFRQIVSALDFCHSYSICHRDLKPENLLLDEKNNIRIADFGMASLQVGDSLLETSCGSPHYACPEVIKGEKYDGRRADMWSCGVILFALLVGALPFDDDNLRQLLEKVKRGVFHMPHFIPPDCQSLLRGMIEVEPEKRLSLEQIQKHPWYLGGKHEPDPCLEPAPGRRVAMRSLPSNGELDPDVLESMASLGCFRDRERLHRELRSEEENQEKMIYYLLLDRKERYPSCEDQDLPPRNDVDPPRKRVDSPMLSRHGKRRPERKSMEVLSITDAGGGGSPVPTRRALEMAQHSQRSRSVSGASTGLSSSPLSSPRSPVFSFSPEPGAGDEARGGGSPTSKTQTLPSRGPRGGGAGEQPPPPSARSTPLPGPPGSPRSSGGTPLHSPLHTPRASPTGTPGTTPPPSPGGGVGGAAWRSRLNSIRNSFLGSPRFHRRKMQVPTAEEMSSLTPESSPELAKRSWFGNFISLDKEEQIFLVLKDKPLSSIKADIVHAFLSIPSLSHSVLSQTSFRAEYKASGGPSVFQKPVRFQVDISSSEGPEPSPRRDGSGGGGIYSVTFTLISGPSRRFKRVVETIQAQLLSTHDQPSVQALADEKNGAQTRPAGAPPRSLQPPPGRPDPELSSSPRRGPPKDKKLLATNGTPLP
| SMILES | remaining activity |
| --- | --- |
| Cc1ccc(Nc2nccc(N(C)c3ccc4c(C)n(C)nc4c3)n2)cc1S(N)(=O)=O | 97.2% |
| Cc1nc(-c2ccccc2)c(-c2ccncc2)o1 | 99.8% |
| OCC(O)CCON=C1C(c2c(O)[nH]c3ccccc23)=Nc2ccccc21 (centres unmarked) | 39.5% |
| N#CC(C#N)=C(N)/C(C#N)=C/c1ccc(O)cc1 | 99.2% |
| COc1cc2nccc(Oc3ccc(NC(=S)NC(=O)c4ccccc4C)cc3)c2cc1OC | 87% |
| CC(C)[C@H](CO)Nc1nc(Nc2cc(N)cc(Cl)c2)c2ncn(C(C)C)c2n1 | 93.1% |
| O=C(Nc1cccc(Nc2cc(Nc3cccc(C(F)(F)F)c3)ncn2)c1)C1CC1 | 101% |
| COc1ccc(CNC(=O)Nc2ncc([N+](=O)[O-])s2)cc1 | 102% |
| CO[C@H]1C[C@@H]2CC[C@@H](C)[C@@](O)(O2)C(=O)C(=O)N2CCCC[C@H]2C(=O)O[C@H]([C@H](C)C[C@@H]2CC[C@@H](O)[C@H](OC)C2)CC(=O)[C@H](C)/C=C(\C)[C@@H](O)[C@@H](OC)C(=O)[C@H](C)C[C@H](C)/C=C/C=C/C=C/1C | 99.9% |
| CNC(=O)c1cc(Oc2ccc(NC(=O)Nc3ccc(Cl)c(C(F)(F)F)c3)cc2)ccn1 | 95.8% |
| C#Cc1cccc(Nc2ncnc3cc(OCCOC)c(OCCOC)cc23)c1 | 95.3% |
| Cn1c2ccccc2c2c3c(c4c5ccccc5n(CCC#N)c4c21)CNC3=O | 20.2% |
| O=C1NC(=O)C(c2cn(CCCn3ccnc3)c3ccccc23)=C1Nc1ccccc1 | 95.3% |
| CCOC(=O)c1c(C)[nH]c(/C=C2\C(=O)Nc3ccccc32)c1C | 92.6% |
| CN(C)c1ccc(C=C2C(=O)Nc3ccccc32)cc1 | 99.6% |

Set 4
Cell line: A-375
Tested at: 100 µM
Time: 36 h
| SMILES | viability |
| --- | --- |
| N=C(N)/N=C(\N)N1CCOCC1 | 105% |
| NCc1ccc(S(N)(=O)=O)cc1 | 135% |
| CCCCNC(=O)NS(=O)(=O)c1ccc(C)cc1 | 91.6% |
| O=c1cc(-c2ccccc2)oc2cc(O)c(O)c(O)c12 | 29.4% |
| CS(=O)(=O)c1ccc(C(=O)Nc2ccc(Cl)c(-c3ccccn3)c2)c(Cl)c1 | 61.4% |
| Cc1ccccc1C(=O)Nc1ccc(C(=O)N2CCCC(O)c3cc(Cl)ccc32)c(C)c1 (centres unmarked) | 73.4% |
